Measurements pooled from the literature.
Numbered parts are unrelated; each lists some results of a single study. Several values in a cell are separate wells, animals, samples, runs or records.
UniProt P07949, sequence (whole entry, unmodified, looked up): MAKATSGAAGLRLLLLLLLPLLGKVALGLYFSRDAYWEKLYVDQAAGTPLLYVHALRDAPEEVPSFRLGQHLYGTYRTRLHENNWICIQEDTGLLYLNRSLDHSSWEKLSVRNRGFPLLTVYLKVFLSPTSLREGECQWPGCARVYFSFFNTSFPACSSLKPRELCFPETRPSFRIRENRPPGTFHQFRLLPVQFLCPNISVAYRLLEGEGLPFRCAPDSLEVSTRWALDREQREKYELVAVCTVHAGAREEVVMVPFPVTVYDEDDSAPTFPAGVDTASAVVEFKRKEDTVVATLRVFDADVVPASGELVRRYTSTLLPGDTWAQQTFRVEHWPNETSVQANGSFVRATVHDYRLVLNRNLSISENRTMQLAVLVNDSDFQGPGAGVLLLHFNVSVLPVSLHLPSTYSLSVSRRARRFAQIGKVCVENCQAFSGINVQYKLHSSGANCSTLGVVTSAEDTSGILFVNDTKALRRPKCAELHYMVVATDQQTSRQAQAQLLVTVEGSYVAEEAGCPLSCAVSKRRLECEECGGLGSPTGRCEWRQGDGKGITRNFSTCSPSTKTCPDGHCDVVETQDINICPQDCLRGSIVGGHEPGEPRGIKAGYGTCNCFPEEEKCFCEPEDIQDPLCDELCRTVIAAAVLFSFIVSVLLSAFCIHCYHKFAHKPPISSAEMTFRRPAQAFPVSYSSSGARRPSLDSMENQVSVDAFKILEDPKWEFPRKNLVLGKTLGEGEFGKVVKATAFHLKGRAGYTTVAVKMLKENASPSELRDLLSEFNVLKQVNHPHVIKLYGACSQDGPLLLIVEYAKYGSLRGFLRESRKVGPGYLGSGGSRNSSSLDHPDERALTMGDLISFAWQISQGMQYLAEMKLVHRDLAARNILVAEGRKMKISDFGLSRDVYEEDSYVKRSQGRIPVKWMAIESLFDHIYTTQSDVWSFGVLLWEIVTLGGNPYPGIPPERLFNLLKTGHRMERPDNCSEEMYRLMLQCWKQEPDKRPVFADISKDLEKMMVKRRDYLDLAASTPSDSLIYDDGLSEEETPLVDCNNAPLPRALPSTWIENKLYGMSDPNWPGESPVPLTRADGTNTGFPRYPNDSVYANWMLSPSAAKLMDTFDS
UniProt P24723, sequence (whole entry, looked up): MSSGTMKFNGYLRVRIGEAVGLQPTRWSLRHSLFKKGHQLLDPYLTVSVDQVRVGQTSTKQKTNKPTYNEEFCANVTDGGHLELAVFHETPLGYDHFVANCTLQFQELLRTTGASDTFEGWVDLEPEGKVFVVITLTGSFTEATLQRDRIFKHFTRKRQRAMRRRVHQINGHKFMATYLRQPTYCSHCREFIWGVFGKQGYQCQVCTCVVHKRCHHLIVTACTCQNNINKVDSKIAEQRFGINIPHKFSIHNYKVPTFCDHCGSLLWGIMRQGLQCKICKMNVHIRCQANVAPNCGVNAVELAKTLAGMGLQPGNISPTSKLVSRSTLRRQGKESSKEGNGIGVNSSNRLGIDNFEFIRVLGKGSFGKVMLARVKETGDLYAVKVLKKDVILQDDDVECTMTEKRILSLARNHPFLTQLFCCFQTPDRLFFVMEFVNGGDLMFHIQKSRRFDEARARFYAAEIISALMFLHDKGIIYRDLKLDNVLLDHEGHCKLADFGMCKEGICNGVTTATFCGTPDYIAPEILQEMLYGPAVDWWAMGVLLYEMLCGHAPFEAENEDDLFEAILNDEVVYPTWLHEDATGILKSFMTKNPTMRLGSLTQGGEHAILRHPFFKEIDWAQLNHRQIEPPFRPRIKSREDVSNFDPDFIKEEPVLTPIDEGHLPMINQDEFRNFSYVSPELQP
UniProt Q8WTQ7, sequence (whole entry, looked up): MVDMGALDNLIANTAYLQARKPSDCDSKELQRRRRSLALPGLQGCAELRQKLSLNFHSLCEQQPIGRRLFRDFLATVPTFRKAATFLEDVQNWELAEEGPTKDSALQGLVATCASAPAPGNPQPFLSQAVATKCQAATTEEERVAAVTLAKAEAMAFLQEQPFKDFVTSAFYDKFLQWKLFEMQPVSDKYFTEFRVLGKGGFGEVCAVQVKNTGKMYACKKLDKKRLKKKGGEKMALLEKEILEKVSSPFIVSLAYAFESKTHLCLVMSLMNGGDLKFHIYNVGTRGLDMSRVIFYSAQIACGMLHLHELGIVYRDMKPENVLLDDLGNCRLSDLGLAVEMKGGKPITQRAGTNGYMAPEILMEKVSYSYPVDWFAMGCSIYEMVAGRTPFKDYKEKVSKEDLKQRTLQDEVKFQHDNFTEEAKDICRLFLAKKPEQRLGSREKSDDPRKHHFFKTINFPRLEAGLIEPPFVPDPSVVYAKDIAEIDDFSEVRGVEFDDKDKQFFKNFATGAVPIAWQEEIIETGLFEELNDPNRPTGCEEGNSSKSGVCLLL
UniProt Q00526, sequence (whole entry, looked up): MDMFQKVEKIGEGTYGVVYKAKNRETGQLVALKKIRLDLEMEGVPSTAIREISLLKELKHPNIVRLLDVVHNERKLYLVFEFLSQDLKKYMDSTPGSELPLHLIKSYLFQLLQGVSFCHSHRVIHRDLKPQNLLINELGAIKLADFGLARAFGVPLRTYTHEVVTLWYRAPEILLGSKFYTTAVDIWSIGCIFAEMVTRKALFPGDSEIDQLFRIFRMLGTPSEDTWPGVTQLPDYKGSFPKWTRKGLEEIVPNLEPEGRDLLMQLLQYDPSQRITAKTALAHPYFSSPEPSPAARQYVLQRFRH
UniProt P49761, sequence (whole entry, looked up): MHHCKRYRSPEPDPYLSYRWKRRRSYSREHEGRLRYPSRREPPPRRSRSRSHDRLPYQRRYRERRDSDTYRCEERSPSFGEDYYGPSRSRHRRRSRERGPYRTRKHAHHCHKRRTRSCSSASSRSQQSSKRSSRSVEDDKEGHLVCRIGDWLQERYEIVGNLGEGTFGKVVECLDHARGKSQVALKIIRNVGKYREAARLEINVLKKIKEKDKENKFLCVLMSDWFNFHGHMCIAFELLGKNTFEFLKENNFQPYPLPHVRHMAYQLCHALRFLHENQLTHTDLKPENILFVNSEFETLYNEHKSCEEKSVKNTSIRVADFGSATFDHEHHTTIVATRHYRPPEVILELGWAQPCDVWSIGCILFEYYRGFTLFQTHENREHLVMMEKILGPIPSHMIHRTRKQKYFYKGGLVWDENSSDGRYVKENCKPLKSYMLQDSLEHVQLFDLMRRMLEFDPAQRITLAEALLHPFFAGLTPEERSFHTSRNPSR
UniProt P11802, sequence (whole entry, looked up): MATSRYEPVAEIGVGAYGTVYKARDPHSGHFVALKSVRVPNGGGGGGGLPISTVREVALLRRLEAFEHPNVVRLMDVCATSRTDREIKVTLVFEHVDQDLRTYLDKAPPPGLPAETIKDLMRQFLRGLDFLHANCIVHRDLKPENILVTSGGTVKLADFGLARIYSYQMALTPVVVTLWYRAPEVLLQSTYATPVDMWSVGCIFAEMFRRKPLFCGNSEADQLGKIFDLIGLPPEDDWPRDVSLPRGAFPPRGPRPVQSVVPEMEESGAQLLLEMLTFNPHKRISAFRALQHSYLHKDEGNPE

Series 1 — cell line: HaCaT; concentration: 100 µM; time: 18 h
`Cc1cc(C#N)cc(C)c1Oc1nc(Nc2ccc(C#N)cc2)nc(N)c1Br` has a viability of 51.2%.
With `O=c1[nH]c(=O)n(C2CCCO2)cc1F` (stereo not drawn) the viability was 83%.
With `COc1cc2nc(N3CCN(C(=O)c4ccco4)CC3)nc(N)c2cc1OC` the viability was 38.5%.
`O=C(NC1CCN(CCCCC2(C(=O)NCC(F)(F)F)c3ccccc3-c3ccccc32)CC1)c1ccccc1-c1ccc(C(F)(F)F)cc1` gave a viability of 19.7%.
For `Cc1nnc(NS(=O)(=O)c2ccc(N)cc2)s1`, the viability was 95.3%.
For `CC1=C(C/C=C(\C)CCC[C@H](C)CCC[C@H](C)CCCC(C)C)C(=O)c2ccccc2C1=O`, the viability was 90.6%.

Series 2 — observed: cell-free assay; method: competition with immobilised ligand; concentration: 1 µM
SMILES: CN([C@@H]1CCc2c(CC(=O)O)c3cc(S(C)(=O)=O)ccc3n2C1)S(=O)(=O)c1ccc(F)cc1
The remaining binding was 100% (CAMKK1 (Homo sapiens, UniProt Q8N5S9)).
PRKCH (Homo sapiens, UniProt P24723) — remaining binding: 100%.
Tyrosine-protein kinase ABL1, non-phosphorylated (ABL1, Homo sapiens, UniProt P00519, Q252H) — remaining binding: 98%.
It gave 87% for remaining binding (NUAK2 (Homo sapiens, UniProt Q9H093)).
For ITK (Homo sapiens, UniProt Q08881): remaining binding read 100%.
PIM2 (Homo sapiens, UniProt Q9P1W9) — remaining binding: 100%.
For Cyclin-dependent kinase 4, with cyclin D1 (CDK4, Homo sapiens, UniProt P11802): remaining binding read 91%.
MINK1 (Homo sapiens, UniProt Q8N4C8) — remaining binding: 92%.
The remaining binding was 97% (EPHA3 (Homo sapiens, UniProt P29320)).
The remaining binding was 87% (ROS1 (Homo sapiens, UniProt P08922)).
It gave 100% for remaining binding (Myosin-IIIa (MYO3A, Homo sapiens, UniProt Q8NEV4)).
For CLK3 (Homo sapiens, UniProt P49761): remaining binding read 100%.
For PIK3CA (Homo sapiens, UniProt P42336): remaining binding read 100%.
It gave 100% for remaining binding (PIK3CG (Homo sapiens, UniProt P48736)).
It gave 97% for remaining binding (GRK7 (Homo sapiens, UniProt Q8WTQ7)).
HUNK (Homo sapiens, UniProt P57058) — remaining binding: 100%.
RIOK2 (Homo sapiens, UniProt Q9BVS4) — remaining binding: 96%.
For RET (Homo sapiens, UniProt P07949): remaining binding read 100%.
PDPK1 (Homo sapiens, UniProt O15530) — remaining binding: 100%.
Myosin-IIIb (MYO3B, Homo sapiens, UniProt Q8WXR4) — remaining binding: 100%.
The remaining binding was 100% (CDK3 (Homo sapiens, UniProt Q00526)).
It gave 91% for remaining binding (Ribosomal protein S6 kinase alpha-1, N-terminal kinase domain (RPS6KA1, Homo sapiens, UniProt Q15418)).
It gave 90% for remaining binding (ACVR1 (Homo sapiens, UniProt Q04771)).
MAP3K10 (Homo sapiens, UniProt Q02779) — remaining binding: 100%.
It gave 100% for remaining binding (RET (Homo sapiens, UniProt P07949, V804L)).

Series 3 — SMILES: C=CCc1ccc(O)c(-c2cc(CC=C)ccc2O)c1; observed: chloride current; method: whole-cell voltage clamp
ANO1 del476-501/E649D: Anoctamin-1 (ANO1, Homo sapiens, UniProt Q5XXA6, del476-501/E649D)
UniProt Q5XXA6, sequence (whole entry, unmodified, looked up): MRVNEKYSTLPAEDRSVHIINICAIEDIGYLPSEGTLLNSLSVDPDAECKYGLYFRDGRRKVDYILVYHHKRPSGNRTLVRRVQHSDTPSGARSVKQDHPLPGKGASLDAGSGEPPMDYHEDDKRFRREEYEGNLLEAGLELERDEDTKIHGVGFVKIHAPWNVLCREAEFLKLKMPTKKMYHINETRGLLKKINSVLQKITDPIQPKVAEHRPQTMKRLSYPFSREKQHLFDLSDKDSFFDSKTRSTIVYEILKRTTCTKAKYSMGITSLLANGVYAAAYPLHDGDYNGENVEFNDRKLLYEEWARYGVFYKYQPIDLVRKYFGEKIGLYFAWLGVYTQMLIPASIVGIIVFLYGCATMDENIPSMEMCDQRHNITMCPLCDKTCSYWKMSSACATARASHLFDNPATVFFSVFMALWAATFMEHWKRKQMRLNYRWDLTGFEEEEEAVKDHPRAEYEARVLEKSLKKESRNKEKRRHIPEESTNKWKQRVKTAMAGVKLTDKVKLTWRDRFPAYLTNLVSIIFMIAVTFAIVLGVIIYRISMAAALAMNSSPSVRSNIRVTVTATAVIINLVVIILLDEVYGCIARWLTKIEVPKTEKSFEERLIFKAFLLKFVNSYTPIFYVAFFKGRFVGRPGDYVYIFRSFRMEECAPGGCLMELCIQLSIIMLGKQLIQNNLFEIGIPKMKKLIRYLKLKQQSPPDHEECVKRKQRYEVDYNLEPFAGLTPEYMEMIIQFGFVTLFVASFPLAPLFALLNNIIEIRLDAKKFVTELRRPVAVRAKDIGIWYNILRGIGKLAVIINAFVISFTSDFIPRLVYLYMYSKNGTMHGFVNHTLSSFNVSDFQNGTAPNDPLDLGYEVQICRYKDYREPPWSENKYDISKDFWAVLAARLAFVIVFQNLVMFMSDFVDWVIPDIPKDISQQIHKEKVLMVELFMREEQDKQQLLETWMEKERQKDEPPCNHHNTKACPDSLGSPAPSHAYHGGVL
It gave 31.4 µM for IC50 (ANO1 del476-501/E649D; inhibitor; E623D mutant at 20 mV).
Anoctamin-1 (ANO1, Homo sapiens, UniProt Q5XXA6, del476-501/E649I); inhibitor; E623I mutant at -100 mV — IC50: 142 µM.
Anoctamin-1 (ANO1, Homo sapiens, UniProt Q5XXA6, del476-501/R541I); inhibitor; R515I mutant at -40 mV — IC50: 46.3 µM.
It gave 20 µM for IC50 (Anoctamin-1 (ANO1, Homo sapiens, UniProt Q5XXA6, del476-501/F807A); membrane voltage 80 mV).
For Anoctamin-1 (ANO1, Homo sapiens, UniProt Q5XXA6, D383A/del476-501); membrane voltage 80 mV: IC50 read 32.2 µM.
The IC50 was 30.6 µM (Anoctamin-1 (ANO1, Homo sapiens, UniProt Q5XXA6, del476-501); membrane voltage 100 mV, added: 300 nM Ca2+).
The IC50 was 171 µM (Anoctamin-1 (ANO1, Homo sapiens, UniProt Q5XXA6, del476-501/M544V); inhibitor; mutant M518V).
For ANO1 del476-501/E649D; inhibitor; E623D mutant at -100 mV: IC50 read 94.1 µM.

Series 4 — observed: enzyme activity; mode: inhibitor; concentration: 10 µM
Target: Calcium/calmodulin-dependent protein kinase type II subunit alpha (CAMK2A, Homo sapiens, UniProt Q9UQM7)
UniProt Q9UQM7, sequence (whole entry, looked up): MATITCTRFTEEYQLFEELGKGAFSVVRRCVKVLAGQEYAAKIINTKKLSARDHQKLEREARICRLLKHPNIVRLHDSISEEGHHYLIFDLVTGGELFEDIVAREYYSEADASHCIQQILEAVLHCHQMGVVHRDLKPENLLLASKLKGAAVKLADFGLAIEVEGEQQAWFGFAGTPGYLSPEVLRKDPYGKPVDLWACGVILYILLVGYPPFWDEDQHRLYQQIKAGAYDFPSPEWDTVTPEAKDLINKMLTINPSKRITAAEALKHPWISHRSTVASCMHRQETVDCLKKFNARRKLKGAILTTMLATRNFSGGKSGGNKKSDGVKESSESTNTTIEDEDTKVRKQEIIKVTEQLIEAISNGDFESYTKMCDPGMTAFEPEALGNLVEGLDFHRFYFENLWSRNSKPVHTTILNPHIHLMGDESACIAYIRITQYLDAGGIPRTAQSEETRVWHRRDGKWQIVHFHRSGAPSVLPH
`COc1cc([C@H]2c3cc(O)c(OC)cc3C[C@@H](CO)[C@@H]2CO)ccc1O` has an inhibition of 18%.
`C/C=C/c1cc(OC)c2c(c1)[C@@H](C)[C@H](c1ccc3c(c1)OCO3)O2` gave an inhibition of 14%.
For `CC(=O)CCC=C(C)C`, the inhibition was -3%.
With `O=C(/C=C/c1ccc(O)c(O)c1)O[C@@H]1C[C@@](OC(=O)/C=C/c2ccc(O)c(O)c2)(C(=O)O)C[C@@H](O)[C@@H]1O` the inhibition was -12%.
`COc1cc(C=CC(=O)O)cc(OC)c1O` has an inhibition of 2%.
`CC1(C)OC[C@@H](COC(=O)CCc2ccc(OC[C@@H](O)CNCCNC(=O)N3CCOCC3)cc2)O1` has an inhibition of -14%.
`O=c1cc(-c2ccc(O)cc2)oc2c([C@@H]3O[C@H](CO)[C@@H](O)[C@H](O)[C@H]3O)c(O)c([C@@H]3OC[C@@H](O)[C@H](O)[C@H]3O)c(O)c12` gave an inhibition of -2%.
For `O=C1NC(c2ccccc2)(c2ccccc2)C(=O)N1COP(=O)(O)O`, the inhibition was -6%.

Series 5 — cell line: mouse MPNST tumor cells; method: high-content immunofluorescence imaging; item: nuclear SOX9; concentration: 10 µM; time: 12 h; setting: mean of 2 replicates; reference: DMSO control; reading: higher = more nuclear SOX9
`C[C@]12CC[C@@H]3c4ccc(O)cc4CC[C@H]3[C@@H]1CCC2=O`: “nuclear SOX9 intensity” 105 % of DMSO.
`CN(Cc1ccccc1)C(=O)[C@H](Cc1ccc2ccccc2c1)NC(=O)[C@@H]1C[C@@H](O)CN1C(=O)c1cn(C)c2ccccc12`: “nuclear SOX9 intensity” 92.9 % of DMSO.
`CNCCN1CCC(OCc2ccccc2)CC1`: “nuclear SOX9 intensity” 99.1 % of DMSO.
For `O=C(CCSCc1ccco1)NNC(=O)N1Cc2ccccc2Oc2ccc(Cl)cc21`, “nuclear SOX9 intensity” read 115 % of DMSO.
`CCCCCCCCOc1ccc(-c2noc([C@@H]3CCC[N+]3=C(N)N)n2)cc1C(F)(F)F` — result for “nuclear SOX9 intensity”: 81.6 % of DMSO.
For `O=C1[C@@H]2[C@H]3CC[C@H](C3)[C@@H]2C(=O)N1CCCCN1CCN(c2ncccn2)CC1`, “nuclear SOX9 intensity” read 98 % of DMSO.
For `Nc1nc(F)nc2c1ncn2[C@@H]1O[C@H](CO)[C@@H](O)[C@@H]1O`, “nuclear SOX9 intensity” read 114 % of DMSO and 112 % of DMSO.
`NCCNCCNCCNCCN` — result for “nuclear SOX9 intensity”: 103 % of DMSO.

Further values, each from its own experiment
`C[C@@H]1CN(c2ccc(-c3cc(C(=O)NCCOCCOCCOCCOCCNC(=O)Cn4cc(-c5[nH]cc(C(=O)N[C@@H](CC(N)=O)c6ccc(F)c(Cl)c6)c5-c5ccc(Cl)cc5F)cn4)ccc3F)cc2NC(=O)c2c[nH]c(=O)cc2C(F)(F)F)C[C@H](C)N1C` gave a binding of 74.3% (DCAF1 (Homo sapiens, UniProt Q9Y4B6); SPR; concentration not given).
`CSCC[C@H](N)C(=O)O` has a remaining activity of 105% (Diamine acetyltransferase 1 (Homo sapiens, UniProt P21673); inhibitor; 10 µM; reference: control).
